Experimental data of several laboratories.
Parts stem from different laboratories: compare values within a part only.

Sample 1
Target: Histone acetyltransferase KAT6A, both winged helices, GST fusion (KAT6A, Homo sapiens, UniProt Q92794, residues 1-181)
Technique: protein binding microarray
Molecule type: double-stranded DNA, one strand shown
Matrix: in vitro
Concentration: not given
Setting: 8-mer, flanks averaged, mean of 2 arrays, mostly near background
Reference: not given
Direction: higher = stronger binding
Target sequence (chain): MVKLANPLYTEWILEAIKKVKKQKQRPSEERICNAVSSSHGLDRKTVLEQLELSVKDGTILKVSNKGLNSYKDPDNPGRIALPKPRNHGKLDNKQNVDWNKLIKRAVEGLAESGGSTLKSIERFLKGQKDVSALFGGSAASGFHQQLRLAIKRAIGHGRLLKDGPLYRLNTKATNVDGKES
Oligonucleotide | E-score
AGCCTACT | -0.201
CGCCGCGC | 0.419
AGGTCGAA | -0.133
CTCGTTGC | 0.01
GACGCACC | 0.138
ACAACCTG | -0.267
GAGATACA | 0.0442
AATACACT | -0.135

Sample 2
Target: Interferon regulatory factor 7, full length, phosphomimetic (IRF7, Homo sapiens, UniProt Q92985, residues 1-503, S101K/S471D/S472D/S475D/S476D/S477D/S483D/S484D/S487D)
Chain of UniProt Q92985 (whole entry, unmodified, looked up): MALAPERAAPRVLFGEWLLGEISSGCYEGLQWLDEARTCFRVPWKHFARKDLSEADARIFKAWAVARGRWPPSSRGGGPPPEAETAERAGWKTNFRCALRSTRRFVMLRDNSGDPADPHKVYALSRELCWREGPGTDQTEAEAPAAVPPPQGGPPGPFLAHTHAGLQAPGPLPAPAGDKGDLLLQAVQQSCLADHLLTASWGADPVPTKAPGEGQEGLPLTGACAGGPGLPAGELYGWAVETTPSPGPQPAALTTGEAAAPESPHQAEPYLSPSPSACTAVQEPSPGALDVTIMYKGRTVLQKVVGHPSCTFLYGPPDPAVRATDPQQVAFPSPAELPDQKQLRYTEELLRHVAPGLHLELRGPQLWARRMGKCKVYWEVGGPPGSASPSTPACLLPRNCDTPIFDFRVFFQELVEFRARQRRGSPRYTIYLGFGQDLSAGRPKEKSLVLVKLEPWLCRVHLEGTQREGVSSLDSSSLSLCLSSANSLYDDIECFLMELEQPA
Technique: protein-binding microarray
Molecule type: double-stranded DNA, one strand shown
Matrix: in vitro
Concentration: 250 nM
Setting: 60-bp whole probe
Added: salmon DNA 0.4 mg/ml
Reference: random background probes
Direction: higher = stronger binding
Shared flanks, not repeated: GCCTAGCAC … GTCTTGATTCGCTTGACGCTGCTG
Oligonucleotide | log fluorescence [z-score]
ATTTACATGCATATAGTATAGTGCTAG | 0.559
CACGAACTGGGGTTTCGAGACGTGCTA | 1.63
TTTGATCTCAGTTTCGATTAGTGCTAG | 8.07
GACGGTTCCTTTTTCCTGACGTGCTAG | 2.4
TTAGAACTGATACTGGATTAGTGCTAG | 0.125
TTAGATATCGGGGTTCGATTAGTGCTA | 0.547
GACGATTTCGGGACTTGAGACGTGCTA | 0.0889

Sample 3
Target: TAR DNA-binding protein 43, full length, His tag (TARDBP, Homo sapiens, UniProt Q13148, residues 1-414)
Technique: RNA Bind-n-Seq
Molecule type: RNA
Matrix: in vitro
Concentration: 20 nM
Setting: 6-mer, flanks averaged, single round
Added: 150 mM LiCl
Reference: input library
Direction: higher = stronger binding
Oligonucleotide | 6-mer enrichment (R)
AAAUAG | 0.921
CGGCUG | 1.03
CGAUCG | 0.936
GAUCGG | 1.02
GCCUGC | 0.963

Single results of other studies
Substance | target | test | system | conditions | scale | quantity | value
PhoQ, residues 284 288 289 292 302 303 SLSVQF | PhoP, residues 12 14 15 18 19 NQGLL (Escherichia coli, UniProt P23836) | Sort-seq, item: YFP reporter | E. coli | PhoQ-PhoP variant library, added: 10 µM Mg2+ | reference: high Mg2+ state, higher = stronger signaling | fold induction | 6.5

A few entries again (sample 1):
Oligonucleotide | E-score
AGGTCGAA | -0.133
CTCGTTGC | 0.01
